Experimental data pooled from the literature.
A part holds a random share of what one study measured. Positions count from the first letter of the parent shown.
Chain of UniProt O15294 (whole entry, looked up): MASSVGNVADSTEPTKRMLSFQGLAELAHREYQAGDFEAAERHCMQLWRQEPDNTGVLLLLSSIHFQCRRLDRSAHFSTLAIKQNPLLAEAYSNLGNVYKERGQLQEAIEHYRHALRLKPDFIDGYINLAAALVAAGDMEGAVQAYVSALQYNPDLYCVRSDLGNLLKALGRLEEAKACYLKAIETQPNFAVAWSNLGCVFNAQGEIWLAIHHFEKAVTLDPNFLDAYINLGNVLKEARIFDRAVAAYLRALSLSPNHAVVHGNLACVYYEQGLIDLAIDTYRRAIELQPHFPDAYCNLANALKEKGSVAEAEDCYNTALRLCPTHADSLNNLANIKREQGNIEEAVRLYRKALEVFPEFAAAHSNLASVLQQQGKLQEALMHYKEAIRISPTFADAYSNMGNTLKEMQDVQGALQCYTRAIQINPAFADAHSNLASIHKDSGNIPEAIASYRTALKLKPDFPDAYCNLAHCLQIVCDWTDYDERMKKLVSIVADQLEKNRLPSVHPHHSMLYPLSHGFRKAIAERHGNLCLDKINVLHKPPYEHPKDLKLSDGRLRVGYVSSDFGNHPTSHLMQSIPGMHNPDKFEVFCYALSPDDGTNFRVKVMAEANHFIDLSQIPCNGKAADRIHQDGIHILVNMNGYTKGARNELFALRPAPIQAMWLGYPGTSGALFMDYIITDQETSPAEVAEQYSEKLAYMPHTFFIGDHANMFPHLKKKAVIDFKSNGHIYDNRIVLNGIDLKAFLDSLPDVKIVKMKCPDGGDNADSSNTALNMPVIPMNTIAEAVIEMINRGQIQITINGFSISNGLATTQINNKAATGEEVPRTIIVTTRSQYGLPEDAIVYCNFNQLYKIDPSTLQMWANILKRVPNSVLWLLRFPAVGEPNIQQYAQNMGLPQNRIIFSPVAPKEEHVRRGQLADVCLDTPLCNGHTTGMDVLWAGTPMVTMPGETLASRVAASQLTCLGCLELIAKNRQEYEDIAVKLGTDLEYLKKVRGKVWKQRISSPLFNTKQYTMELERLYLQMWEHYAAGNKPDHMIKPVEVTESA

Block 1 — method: protein-binding microarray; molecule type: double-stranded DNA, one strand shown; matrix: in vitro; tested at: not given; direction: higher = stronger binding; measurement: E-score
Target: TATA-box-binding protein 1 (TBP1, Arabidopsis thaliana, UniProt P28147, residues 1-200, full length assumed)
Notes: k-mer, scored over probes, only values ≥0.25
Residues (chain): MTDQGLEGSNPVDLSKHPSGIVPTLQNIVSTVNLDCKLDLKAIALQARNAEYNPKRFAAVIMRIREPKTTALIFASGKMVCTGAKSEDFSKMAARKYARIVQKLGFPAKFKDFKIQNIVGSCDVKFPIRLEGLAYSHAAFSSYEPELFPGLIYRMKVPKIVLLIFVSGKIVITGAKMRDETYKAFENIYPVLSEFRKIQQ
AATATCA: 0.306
ATAAATA: 0.477
ATAAGCC: 0.268
TAGTTAA: 0.292
TAGATAA: 0.298
AAATTAC: 0.306
ATATGGG: 0.283
TATACAA: 0.258

Block 2 — Variant: N165R; method: DHFR PCA, deep sequencing; matrix: yeast; baseline: wild-type fitted maximum; direction: higher = stronger binding; measurement: relative binding score
Target: ABI1, truncated, D143A, DHFR fusion (Arabidopsis thaliana)
Notes: methotrexate growth selection, single substitutions
Starting sequence: PYL1, truncated, DHFR fusion (Arabidopsis thaliana); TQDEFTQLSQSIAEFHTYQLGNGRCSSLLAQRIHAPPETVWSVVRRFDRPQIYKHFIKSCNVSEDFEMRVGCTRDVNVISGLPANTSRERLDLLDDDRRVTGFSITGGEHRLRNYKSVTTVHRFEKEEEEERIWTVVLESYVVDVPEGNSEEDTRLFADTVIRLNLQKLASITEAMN; partner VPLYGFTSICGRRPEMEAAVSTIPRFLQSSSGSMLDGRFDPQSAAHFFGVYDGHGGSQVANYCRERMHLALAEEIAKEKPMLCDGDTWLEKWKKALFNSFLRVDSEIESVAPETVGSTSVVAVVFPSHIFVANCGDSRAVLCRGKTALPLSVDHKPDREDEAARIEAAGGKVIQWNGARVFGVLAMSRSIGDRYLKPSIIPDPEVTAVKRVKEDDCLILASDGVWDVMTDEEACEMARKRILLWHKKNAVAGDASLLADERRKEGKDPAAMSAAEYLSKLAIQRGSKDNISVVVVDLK
together with: (+)-ABA 0.11 µM: 6.45%
together with: (+)-ABA 200 µM: 8.29%
together with: (+)-ABA 58 µM: 0.282%
together with: (+)-ABA 17 µM: -0.166%
together with: (+)-ABA 4.8 µM: 6.87%
together with: (+)-ABA 2500 µM: -0.903%

Block 3 — target: Sox-I, HMG box (Salpingoeca helianthica); method: Spec-seq; molecule type: double-stranded DNA, one strand shown; matrix: in vitro; tested at: not given; notes: whole probe, mean of replicates; baseline: not given; direction: lower = stronger binding; measurement: relative binding energy; constant ends, left off below: GAGTCGTCTCGTCAGCAC … CCGTAGAGCACTCAGGTC
Target sequence (chain): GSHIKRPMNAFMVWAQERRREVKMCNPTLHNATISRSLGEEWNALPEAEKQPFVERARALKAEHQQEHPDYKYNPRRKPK
ATGTGTT: -0.0522 ln ratio
CGACGTT: 0.858 ln ratio
GACGGTT: 0.844 ln ratio
AACCGTT: -0.328 ln ratio
CATACAC: 0.102 ln ratio
CATGTAA: 0.744 ln ratio
CATACAA: -0.186 ln ratio
CATGGTT: 0.754 ln ratio

Mixed results
VVPHMMHQWEHHHA  minimum log2 enrichment ratio (UDP-N-acetylglucosamine--peptide N-acetylglucosaminyltransferase 110 kDa subunit (OGT, Homo sapiens, UniProt O15294); binding, phage display NGS; peptide; panning round 2; baseline: input library): 4.3

For quick reference, copied from above (block 3):
CATACAC: 0.102 ln ratio
